Results from different studies.
Parts stem from different laboratories: compare values within a part only. Substitutions count along the parent as printed.

Sample 1 — target: CCND2, cyclin fold, Cln2 fusion (human); method: yeast growth competition, sequencing; matrix: yeast; notes: weak parent motif; baseline: not given; reading: higher = stronger binding; endpoint: normalised enrichment score; parent: viral docking peptide; TSVRRALFTGGSD
S2A: 0.224
V3G: -0.0641
T9I: -0.26
G11D: -0.0303
T9G: -0.0142
L7G: 0.283
R5V: -0.287
R5N: 0.0806
S12H: -0.182
V3Y: 0.0105
V3H: -0.0943
F8Q: 0.103
R4V: -0.0783
S2E: 0.197
V3P: 0.386

Sample 2 — method: DNA-protein interaction ELISA; molecule type: double-stranded DNA, one strand shown; matrix: in vitro, bacterial lysate; concentration: not given; notes: whole dsDNA probe, crude lysate protein; baseline: highest signal in screen; reading: higher = stronger binding; endpoint: relative absorbance
Target: Probable WRKY transcription factor 11, DNA-binding domain (WRKY11, Arabidopsis thaliana, UniProt Q9SV15, residues 228-325)
Target sequence (chain): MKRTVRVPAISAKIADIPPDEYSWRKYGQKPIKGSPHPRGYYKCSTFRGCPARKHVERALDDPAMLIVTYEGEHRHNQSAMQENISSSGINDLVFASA
AAAAAACCGTCTTATCTCTCGTCCCTAAAA: 13.8 % of maximum
AAAAAACCACCCAGTCTGTTTCTACTAAAA: 12.7 % of maximum
AAAAAAAGGTCATTGCTGCTGGTGTTAAAA: 19 % of maximum
AAAAAAGGCTTCCACTTTGAGTTTGCAAAA: 14.4 % of maximum
AAAAAACTGCTAATCGGTGACCCGATAAAA: 21.6 % of maximum
AAAAAATTCTTAGTTAGATTCACCTCAAAA: 13.8 % of maximum
AAAAAATTGCATTCCACCCTTAGGTTAAAA: 12.1 % of maximum
AAAAAAAGTTACCAGTACGCGTCGGGAAAA: 15.6 % of maximum

Sample 3 — method: EMSA with sequencing; molecule type: double-stranded DNA, one strand shown; matrix: in vitro; concentration: 10 and 20 nM; baseline: negative control set to 0; reading: higher = stronger binding; endpoint: normalised bound fraction
Target: Hepatocyte nuclear factor 3-alpha (Foxa1, Mus musculus, UniProt P35582, residues 1-468, full length assumed)
Chain of UniProt P35582 (whole entry, looked up): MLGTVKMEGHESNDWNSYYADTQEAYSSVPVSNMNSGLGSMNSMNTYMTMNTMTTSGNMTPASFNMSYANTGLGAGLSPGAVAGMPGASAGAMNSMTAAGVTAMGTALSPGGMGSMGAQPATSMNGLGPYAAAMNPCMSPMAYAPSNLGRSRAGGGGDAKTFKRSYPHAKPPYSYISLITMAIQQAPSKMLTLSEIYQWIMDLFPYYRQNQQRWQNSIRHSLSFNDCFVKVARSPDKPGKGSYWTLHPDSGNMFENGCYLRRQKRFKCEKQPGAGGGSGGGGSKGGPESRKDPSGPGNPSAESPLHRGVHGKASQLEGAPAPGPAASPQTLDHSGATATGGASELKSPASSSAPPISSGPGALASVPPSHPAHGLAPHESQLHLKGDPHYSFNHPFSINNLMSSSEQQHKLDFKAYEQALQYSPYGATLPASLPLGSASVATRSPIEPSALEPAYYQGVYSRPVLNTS
Notes: whole designed probe, mean of two concentrations, ends assumed
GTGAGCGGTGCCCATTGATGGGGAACATCTTCCCCCTCTTCCTTGCCCCACCAGCTCACCTTCCCGGGTTATTTGCAGATAGGAAAATAAATAAAGCCGGCATTCGTTAACCCTCTTCTGGCGCAAACTGCTGTTTGCTCTGGATGAATCATGGTCCTTTGGCGACGCCAGGCTCCGAGGCGAAGAAGCACCGTGTCAGGGCCATGATCCGGGGTGGCCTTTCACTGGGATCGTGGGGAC: 0.331 ratio
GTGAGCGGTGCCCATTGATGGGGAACATCACTGATAAGTGAAGTTCCATAGAGGCCTTCCAATACCCTGCTTAACAGCTTATAAGCAAATATGCCCACTAGTAAAGAATAAGTGTTATGTAAACAAGAAAGTATGCAAATTCTGGTCATGCTCATCAGCAAAGGCTTTTCTTGCAATAGACTGAGTGCCGTTTTCCAGGAGTTAATAAATTGGACAAAATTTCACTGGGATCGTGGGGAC: 0.542 ratio
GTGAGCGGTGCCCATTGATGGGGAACATTCCAGGCAAAGCCAAATGACGATGCACCAGTGAGTCACCAGTGAGATTGCATTTAAAATCTAGCAGCCTCAGAGCCAAGACCAGCCTTGTGTAAACAGAGTTCAGGGAGGAGGGAAGATAGTGGAGTGAGACGTGCCGAGGCCAGCCGGCCTCTGGGCTTGGGGTGCGCTGACCTCTGGGGAGCCGAGTGCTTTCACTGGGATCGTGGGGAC: 0.475 ratio
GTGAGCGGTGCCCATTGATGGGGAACTTATGATCTGAGTATATATAGTAAGTACCTCCCCTTTCAGGGTAAGGCAGTAGGTAATGGTGAACAGGGAAGCAAAAGGTGACTCAGGTTGAGTAATCTACACCAAGCATATCTGACTCAAGGAATGCTTCAGAGGCCAGGGGTGCATGCCTGTAATCCCAGCACCTTGGAAGGCTGACACAGGAGGATCACTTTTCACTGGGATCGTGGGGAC: -0.017 ratio
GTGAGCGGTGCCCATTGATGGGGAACCACTAGCCAAGCAAATGCTACCTTTCCTAAATTACGCCGTGGTATTGTGTACGACAGCAGCAGGGTTGCTATTTTAAAATGGGATTGCGTAAAATAAACATGTGCCCAGATGCTAAGTTGACAGGAAGTAATGATTAATTGATGCTCTGGTACGGCCTCGTGCTTTCCAGTGCTTCCATTTGTGTGACGATCCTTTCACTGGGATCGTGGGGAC: 0.246 ratio
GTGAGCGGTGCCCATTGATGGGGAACATCTTCCCCCTCTTCCTTGCCCCACCAGCTCACCTTCCCGGGTTATTTGCAGATAGGAAAATAAATAAAGCCGGCATTCGTTAACCCTCTTCACGCGCATACTGCCAAAGTAAACAGATGAATCATGGTCCTTTGGCGACGCCAGGCTCCGGGAGAGCAAAGCACCGTGTCAGGGCCATGATCCGGGGTGGCCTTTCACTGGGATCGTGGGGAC: 0.49 ratio
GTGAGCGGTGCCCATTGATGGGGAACCATTAGAGTCAAAGTTGTTAAGGGGAGCTAGTCATAGCTACCACGTGGCCAGGCATGTGGAAATGAATCATCACCAGACACCAGGCACACATCTATTTACTTTAAATAATGCTGACAACCTAGTTCATAGTGACACACTACTTGAGATATATAGAATAACATTATTACCCAGTAAGTATGTGAACATTCCGATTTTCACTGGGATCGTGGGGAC: 0.321 ratio
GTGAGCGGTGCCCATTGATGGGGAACCAAGTTTGTGGTCCAGGAGCAACAGGTTATGCCATACAGCCTAGGTGTGTAGTAGGCTACACACCGTCTATGTTTGTGTTGTACACTCTACAATGTTTGCACAATGATGAAACCATGACTCATTCTTCTCAGAACATACCCCTGTTGTTAAGCGATACATGACTGTACTTTTTTTAAAAAGTCCAAGGATATATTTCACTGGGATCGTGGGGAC: 0.452 ratio

Sample 4 — method: DHFR PCA, deep sequencing; matrix: yeast; together with: (+)-ABA 0.0091 µM; baseline: wild-type fitted maximum; reading: higher = stronger binding; endpoint: relative binding score
Target: ABI1, truncated, D143A, DHFR fusion (Arabidopsis thaliana)
Notes: methotrexate growth selection, single substitutions
Parent: PYL1, truncated, DHFR fusion (Arabidopsis thaliana); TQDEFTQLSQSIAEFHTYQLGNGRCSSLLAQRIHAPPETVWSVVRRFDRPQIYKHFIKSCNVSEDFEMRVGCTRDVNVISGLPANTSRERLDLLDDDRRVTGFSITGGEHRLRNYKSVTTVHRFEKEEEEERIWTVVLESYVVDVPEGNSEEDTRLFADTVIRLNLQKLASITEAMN
E64P: 53.5%
E131C: 37.2%
V44A: -2.62%
V78K: 3.4%
V100E: -10.4%
L164K: -0.513%
V161T: 13%
A158P: -3.22%

Some of these lines once more (sample 1):
S2A: 0.224
V3G: -0.0641
